Measured values from different studies.
Numbered parts are unrelated; each lists some results of a single study.
UniProt P10721, sequence (whole entry, unmodified, looked up): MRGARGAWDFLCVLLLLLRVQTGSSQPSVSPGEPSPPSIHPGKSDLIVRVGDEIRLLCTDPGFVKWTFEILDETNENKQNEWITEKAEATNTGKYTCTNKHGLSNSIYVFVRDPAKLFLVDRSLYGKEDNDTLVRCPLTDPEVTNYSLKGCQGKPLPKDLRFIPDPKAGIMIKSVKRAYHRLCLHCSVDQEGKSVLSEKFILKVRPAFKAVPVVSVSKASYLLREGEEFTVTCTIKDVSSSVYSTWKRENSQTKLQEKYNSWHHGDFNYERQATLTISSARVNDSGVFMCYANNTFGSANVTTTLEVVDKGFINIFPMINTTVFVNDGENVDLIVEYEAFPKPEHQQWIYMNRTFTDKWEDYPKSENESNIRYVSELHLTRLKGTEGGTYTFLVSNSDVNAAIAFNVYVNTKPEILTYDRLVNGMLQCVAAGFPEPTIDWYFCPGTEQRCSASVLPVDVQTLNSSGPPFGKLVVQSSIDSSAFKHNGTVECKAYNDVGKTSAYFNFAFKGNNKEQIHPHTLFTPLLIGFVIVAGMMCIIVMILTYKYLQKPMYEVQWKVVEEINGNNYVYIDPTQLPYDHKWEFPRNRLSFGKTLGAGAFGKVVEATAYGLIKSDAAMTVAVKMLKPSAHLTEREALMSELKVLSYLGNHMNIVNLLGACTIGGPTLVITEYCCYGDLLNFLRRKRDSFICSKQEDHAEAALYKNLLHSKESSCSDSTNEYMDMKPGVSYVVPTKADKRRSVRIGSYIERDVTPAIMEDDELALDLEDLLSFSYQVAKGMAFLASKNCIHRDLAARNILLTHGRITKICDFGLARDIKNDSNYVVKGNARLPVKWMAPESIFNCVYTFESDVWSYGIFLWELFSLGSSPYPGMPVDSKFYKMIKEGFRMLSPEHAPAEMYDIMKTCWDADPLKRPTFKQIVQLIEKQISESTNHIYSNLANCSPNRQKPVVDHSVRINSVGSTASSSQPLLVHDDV
UniProt O14733, sequence (whole entry, looked up): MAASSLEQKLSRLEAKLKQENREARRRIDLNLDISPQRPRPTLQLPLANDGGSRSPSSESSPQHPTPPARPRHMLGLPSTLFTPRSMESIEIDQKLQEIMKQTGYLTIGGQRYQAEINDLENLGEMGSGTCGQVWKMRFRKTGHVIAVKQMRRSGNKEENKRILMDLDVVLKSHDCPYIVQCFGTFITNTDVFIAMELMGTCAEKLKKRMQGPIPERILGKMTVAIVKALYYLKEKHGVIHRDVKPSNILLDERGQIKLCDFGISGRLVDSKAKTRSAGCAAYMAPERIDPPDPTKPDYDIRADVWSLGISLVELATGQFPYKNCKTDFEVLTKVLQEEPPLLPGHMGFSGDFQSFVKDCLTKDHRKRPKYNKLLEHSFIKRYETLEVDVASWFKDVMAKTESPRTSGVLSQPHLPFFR
UniProt Q9H3Y6, sequence (whole entry, looked up): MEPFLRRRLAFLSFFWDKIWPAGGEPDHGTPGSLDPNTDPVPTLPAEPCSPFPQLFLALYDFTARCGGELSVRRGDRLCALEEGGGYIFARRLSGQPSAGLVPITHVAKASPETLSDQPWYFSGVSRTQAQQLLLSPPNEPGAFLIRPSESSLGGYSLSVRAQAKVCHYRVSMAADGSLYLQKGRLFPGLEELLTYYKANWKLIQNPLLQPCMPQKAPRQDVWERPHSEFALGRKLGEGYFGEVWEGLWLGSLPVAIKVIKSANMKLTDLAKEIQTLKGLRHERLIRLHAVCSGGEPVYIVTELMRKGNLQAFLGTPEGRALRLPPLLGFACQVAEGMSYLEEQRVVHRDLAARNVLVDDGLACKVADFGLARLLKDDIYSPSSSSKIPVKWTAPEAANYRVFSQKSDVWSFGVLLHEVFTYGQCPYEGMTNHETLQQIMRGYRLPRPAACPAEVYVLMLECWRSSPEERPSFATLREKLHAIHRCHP
UniProt P54756, sequence (whole entry, looked up): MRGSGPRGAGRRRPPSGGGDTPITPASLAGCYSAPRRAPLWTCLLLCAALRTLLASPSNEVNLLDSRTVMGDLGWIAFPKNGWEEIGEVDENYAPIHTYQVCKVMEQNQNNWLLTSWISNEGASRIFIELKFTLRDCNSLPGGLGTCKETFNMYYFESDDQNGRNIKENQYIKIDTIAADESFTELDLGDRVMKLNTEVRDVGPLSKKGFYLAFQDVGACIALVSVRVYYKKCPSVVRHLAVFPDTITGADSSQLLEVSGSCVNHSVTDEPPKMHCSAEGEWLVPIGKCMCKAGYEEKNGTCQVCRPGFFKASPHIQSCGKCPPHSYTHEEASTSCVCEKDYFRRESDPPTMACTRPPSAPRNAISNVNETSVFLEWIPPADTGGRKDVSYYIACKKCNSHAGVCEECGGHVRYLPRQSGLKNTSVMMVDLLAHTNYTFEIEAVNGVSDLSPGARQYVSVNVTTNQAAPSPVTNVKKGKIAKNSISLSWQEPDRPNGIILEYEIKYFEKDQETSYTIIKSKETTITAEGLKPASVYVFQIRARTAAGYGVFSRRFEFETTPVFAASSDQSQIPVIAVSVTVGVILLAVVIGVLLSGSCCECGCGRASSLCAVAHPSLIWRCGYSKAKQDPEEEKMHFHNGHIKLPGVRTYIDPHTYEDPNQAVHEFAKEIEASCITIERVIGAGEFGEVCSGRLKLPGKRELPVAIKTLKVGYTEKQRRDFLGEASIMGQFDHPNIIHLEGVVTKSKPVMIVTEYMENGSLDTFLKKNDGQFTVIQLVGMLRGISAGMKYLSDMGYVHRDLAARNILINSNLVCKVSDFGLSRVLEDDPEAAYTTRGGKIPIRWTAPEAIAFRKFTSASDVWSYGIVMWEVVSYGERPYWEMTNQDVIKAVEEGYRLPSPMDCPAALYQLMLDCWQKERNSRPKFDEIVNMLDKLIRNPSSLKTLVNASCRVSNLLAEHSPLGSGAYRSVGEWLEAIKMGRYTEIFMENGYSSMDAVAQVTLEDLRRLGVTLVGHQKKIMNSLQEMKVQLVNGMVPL
UniProt P36507, sequence (whole entry, looked up): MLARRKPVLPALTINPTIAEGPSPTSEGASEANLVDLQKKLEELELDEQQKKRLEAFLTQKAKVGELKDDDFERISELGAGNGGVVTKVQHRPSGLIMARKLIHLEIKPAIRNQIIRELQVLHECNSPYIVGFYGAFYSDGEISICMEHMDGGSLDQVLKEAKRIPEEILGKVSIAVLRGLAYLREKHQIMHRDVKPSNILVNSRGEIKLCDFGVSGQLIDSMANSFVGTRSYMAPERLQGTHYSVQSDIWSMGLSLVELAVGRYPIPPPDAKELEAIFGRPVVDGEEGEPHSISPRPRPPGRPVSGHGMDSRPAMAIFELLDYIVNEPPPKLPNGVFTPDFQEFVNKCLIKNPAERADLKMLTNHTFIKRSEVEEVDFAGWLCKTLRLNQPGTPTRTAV
UniProt Q15208, sequence (whole entry, looked up): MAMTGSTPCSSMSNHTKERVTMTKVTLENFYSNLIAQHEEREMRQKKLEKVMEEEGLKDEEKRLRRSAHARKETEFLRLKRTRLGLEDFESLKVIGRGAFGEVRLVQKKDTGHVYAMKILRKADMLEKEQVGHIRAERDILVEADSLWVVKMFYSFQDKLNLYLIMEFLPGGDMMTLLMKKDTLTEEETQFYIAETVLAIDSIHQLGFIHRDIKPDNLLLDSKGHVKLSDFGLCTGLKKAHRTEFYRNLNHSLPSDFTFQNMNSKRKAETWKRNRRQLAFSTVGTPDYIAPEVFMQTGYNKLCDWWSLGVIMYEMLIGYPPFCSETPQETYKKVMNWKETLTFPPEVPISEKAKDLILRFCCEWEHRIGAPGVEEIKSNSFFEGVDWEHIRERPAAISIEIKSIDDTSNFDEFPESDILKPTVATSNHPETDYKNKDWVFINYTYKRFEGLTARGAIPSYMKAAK

Set 1 — SMILES: C=CCc1ccc(O)c(-c2ccc(O)c(CC=C)c2)c1; observed: chloride current
ANO1 del476-501/F628A: Anoctamin-1 (ANO1, Homo sapiens, UniProt Q5XXA6, del476-501/F628A)
For ANO1 del476-501/F628A; whole-cell voltage clamp; 3 µM, concentration-response at 40 mV, added: 4 µM Ca2+: normalized current read 0.356.
ANO1 del476-501/F628A; whole-cell voltage clamp; 100 µM, concentration-response at -40 mV, added: 4 µM Ca2+ — normalized current: -0.0671.
TMEM16A (human) K603A/E623A; inside-out patch clamp; 10 µM, membrane voltage 40 mV — normalized current: 0.23.
For Anoctamin-1 (ANO1, Homo sapiens, UniProt Q5XXA6, del476-501/K430L); whole-cell voltage clamp; concentration not given: normalized current read 0.401.
For ANO1 del476-501/F628A; whole-cell voltage clamp; 30 µM, concentration-response at 40 mV, added: 4 µM Ca2+: normalized current read 0.19.
For ANO1 del476-501/F628A; whole-cell voltage clamp; 1 µM, concentration-response at -100 mV, added: 4 µM Ca2+: normalized current read -0.805.
Anoctamin-1 (ANO1, Homo sapiens, UniProt Q5XXA6); inside-out patch clamp; 10 µM, membrane voltage -20 mV — normalized current: -0.148.
For Anoctamin-1 (ANO1, Homo sapiens, UniProt Q5XXA6, del476-501/R429A); whole-cell voltage clamp; concentration not given: normalized current read 0.383.

Set 2 — action: antagonist
Target: Beta-1 adrenergic receptor (ADRB1, Homo sapiens, UniProt P08588)
UniProt P08588, sequence (whole entry, looked up): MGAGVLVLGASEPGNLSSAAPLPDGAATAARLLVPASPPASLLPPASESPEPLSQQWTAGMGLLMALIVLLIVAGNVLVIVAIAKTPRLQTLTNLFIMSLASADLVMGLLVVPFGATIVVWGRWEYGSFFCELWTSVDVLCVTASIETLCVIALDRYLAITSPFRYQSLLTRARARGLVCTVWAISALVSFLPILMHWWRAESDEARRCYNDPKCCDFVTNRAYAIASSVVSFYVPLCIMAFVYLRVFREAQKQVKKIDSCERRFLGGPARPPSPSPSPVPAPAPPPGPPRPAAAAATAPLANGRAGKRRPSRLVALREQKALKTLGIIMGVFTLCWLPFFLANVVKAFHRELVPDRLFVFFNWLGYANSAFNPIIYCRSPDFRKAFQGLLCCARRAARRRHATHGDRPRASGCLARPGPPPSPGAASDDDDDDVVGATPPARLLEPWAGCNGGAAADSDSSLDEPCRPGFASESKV
The IC50 of `Cc1ccsc1-c1n[nH]c2ncc(-c3cnn(C)c3C)nc12` is reported as ≥ 100 µM.
For `N#Cc1cc2c(nc1N1CCC(COc3cccc(C(F)(F)F)n3)CC1)CCOC2`, the IC50 was ≥ 100 µM.
`Cc1noc2c(Nc3ccc(N4CCOCC4)cc3)cc(-c3cccs3)nc12` has an IC50 of ≥ 100 µM.
The IC50 of `COc1ccc2c(CSc3nncn3-c3ccccc3)cc(=O)oc2c1` is reported as ≥ 100 µM.
`COc1ccccc1C(=O)Nc1ccc([C@@H](O)[C@H]2COCC(=O)N2Cc2ccc(F)cc2)cc1` has an IC50 of ≥ 100 µM.
`O=C(NCCc1nccc(-c2ccccc2)n1)c1ccc2cccc(F)c2n1` has an IC50 of ≥ 100 µM.
With `COCCN1CCNc2nc(COc3cccc(N4CCOCC4)c3)n(Cc3ccccc3)c2C1=O` the IC50 was ≥ 100 µM.
With `COc1ccc2c(O[C@H]3CC4C(=O)N(C)CCCCC=C[C@@H]5C[C@@]5(C(=O)N[S+](=O)([O-])C5CC5)NC(=O)[C@@H]4C3)cc(-c3nc(C(C)C)cs3)nc2c1C` (stereo partly drawn) the IC50 was ≥ 100 µM.
With `COc1ccccc1N1CCC(CNC(=O)c2c[nH]c3ccccc23)C1` (stereo not drawn) the IC50 was ≥ 100 µM.
`COCCn1ccc2c(C3=CCOCC3)nc(-c3cccc(O)c3)cc21` gave an IC50 of ≥ 100 µM.
`COc1ccc(CN2CC[C@@H]3OCC(=O)N(Cc4c[nH]c5ccccc45)[C@H]3CC2)cc1O` gave an IC50 of ≥ 100 µM.

Set 3 — observed: enzyme activity; action: inhibitor; concentration: 10 µM
Target: Calcium/calmodulin-dependent protein kinase type II subunit alpha (CAMK2A, Homo sapiens, UniProt Q9UQM7)
UniProt Q9UQM7, sequence (whole entry, looked up): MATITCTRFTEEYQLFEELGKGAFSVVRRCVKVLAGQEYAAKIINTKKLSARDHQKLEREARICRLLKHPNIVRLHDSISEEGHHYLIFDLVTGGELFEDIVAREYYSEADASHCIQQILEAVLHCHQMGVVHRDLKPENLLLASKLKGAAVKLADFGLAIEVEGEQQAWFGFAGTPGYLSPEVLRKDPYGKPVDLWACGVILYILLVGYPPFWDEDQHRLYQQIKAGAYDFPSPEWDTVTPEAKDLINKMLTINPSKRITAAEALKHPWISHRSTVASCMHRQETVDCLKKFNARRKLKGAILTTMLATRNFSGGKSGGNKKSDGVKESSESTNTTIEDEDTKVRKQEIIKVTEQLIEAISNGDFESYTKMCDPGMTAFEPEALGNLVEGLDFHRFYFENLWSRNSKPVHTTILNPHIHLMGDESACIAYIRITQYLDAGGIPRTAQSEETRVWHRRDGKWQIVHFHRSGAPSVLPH
`O[C@@H]1[C@@H](O)[C@H](OC/C=C/c2ccccc2)O[C@H](CO[C@@H]2OC[C@H](O)[C@H](O)[C@H]2O)[C@H]1O` gave an inhibition of 9%.
`COc1cc2c(c(OC)c1OC)-c1ccc(OC)c(=O)cc1[C@@H](NC(C)=O)CC2` gave an inhibition of 12%.
The inhibition of `NC1=NCC2c3ccccc3Cc3ccccc3N12` (stereo not drawn) is reported as -6%.
For `C=CC(=C)CCC=C(C)C`, the inhibition was 23%.
With `CO[C@H]1/C=C/O[C@@]2(C)Oc3c(C)c(O)c4c(O)c(c5c(nc6cc(C)ccn65)c4c3C2=O)NC(=O)/C(C)=C\C=C\[C@H](C)[C@H](O)[C@@H](C)[C@@H](O)[C@@H](C)[C@H](OC(C)=O)[C@@H]1C` the inhibition was -2%.
`COc1ccc(-c2oc3c(CC=C(C)C)c(O[C@@H]4O[C@H](CO)[C@@H](O)[C@H](O)[C@H]4O)cc(O)c3c(=O)c2O[C@@H]2O[C@@H](C)[C@H](O)[C@@H](O)[C@H]2O[C@@H]2OC[C@@H](O)[C@H](O)[C@H]2O)cc1` gave an inhibition of 2%.
`C=CCc1ccc(O)c(-c2ccc(O)c(CC=C)c2)c1` has an inhibition of 8%.
For `CCCCc1oc2ccccc2c1C(=O)c1cc(I)c(OCCN(CC)CC)c(I)c1`, the inhibition was -14%.
With `N[C@@H](CSCC(=O)O)C(=O)O` the inhibition was -4%.
`NC(=O)c1ncn([C@@H]2O[C@H](CO)[C@@H](O)[C@H]2O)c1O` has an inhibition of -12%.

Set 4 — observed: cell-free assay; method: competition with immobilised ligand; concentration: 1 µM
SMILES: CNC(=O)Nc1ccc2c(c1)CC[C@@]21OC(=O)N(CC(=O)N(Cc2ccc(F)cc2)[C@@H](C)C(F)(F)F)C1=O
It gave 97% for remaining binding (Dual specificity mitogen-activated protein kinase kinase 7 (MAP2K7, Homo sapiens, UniProt O14733)).
For Ephrin type-A receptor 5 (EPHA5, Homo sapiens, UniProt P54756): remaining binding read 96%.
Epidermal growth factor receptor (EGFR, Homo sapiens, UniProt P00533, G719S) — remaining binding: 95%.
It gave 58% for remaining binding (1-phosphatidylinositol 3-phosphate 5-kinase (PIKFYVE, Homo sapiens, UniProt Q9Y2I7)).
For AP2-associated protein kinase 1 (AAK1, Homo sapiens, UniProt Q2M2I8): remaining binding read 100%.
The remaining binding was 100% (Mast/stem cell growth factor receptor Kit (KIT, Homo sapiens, UniProt P10721, L576P)).
It gave 92% for remaining binding (Phosphatidylinositol 4,5-bisphosphate 3-kinase catalytic subunit delta isoform (PIK3CD, Homo sapiens, UniProt O00329)).
The remaining binding was 100% (Tyrosine-protein kinase ABL1, phosphorylated (ABL1, Homo sapiens, UniProt P00519, M351T)).
For Mast/stem cell growth factor receptor Kit (KIT, Homo sapiens, UniProt P10721, A829P): remaining binding read 79%.
Mast/stem cell growth factor receptor Kit (KIT, Homo sapiens, UniProt P10721, D816V) — remaining binding: 70%.
Tyrosine-protein kinase ABL1, non-phosphorylated (ABL1, Homo sapiens, UniProt P00519) — remaining binding: 84%.
The remaining binding was 90% (Dual specificity protein kinase CLK4 (CLK4, Homo sapiens, UniProt Q9HAZ1)).
It gave 64% for remaining binding (Dual specificity tyrosine-phosphorylation-regulated kinase 1A (DYRK1A, Homo sapiens, UniProt Q13627)).
It gave 83% for remaining binding (Tyrosine-protein kinase Srms (SRMS, Homo sapiens, UniProt Q9H3Y6)).
It gave 88% for remaining binding (Hepatocyte growth factor receptor (MET, Homo sapiens, UniProt P08581)).
It gave 100% for remaining binding (Serine/threonine-protein kinase 3 (STK3, Homo sapiens, UniProt Q13188)).
The remaining binding was 100% (Serine/threonine-protein kinase 38 (STK38, Homo sapiens, UniProt Q15208)).
Mast/stem cell growth factor receptor Kit (KIT, Homo sapiens, UniProt P10721) — remaining binding: 100%.
Mitogen-activated protein kinase kinase kinase 11 (MAP3K11, Homo sapiens, UniProt Q16584) — remaining binding: 73%.
It gave 63% for remaining binding (Epidermal growth factor receptor (EGFR, Homo sapiens, UniProt P00533, del752-759)).
Calcium/calmodulin-dependent protein kinase type II subunit alpha (CAMK2A, Homo sapiens, UniProt Q9UQM7) — remaining binding: 91%.
The remaining binding was 96% (Dual specificity mitogen-activated protein kinase kinase 2 (MAP2K2, Homo sapiens, UniProt P36507)).

Repeated from above (set 1):
For ANO1 del476-501/F628A; whole-cell voltage clamp; 3 µM, concentration-response at 40 mV, added: 4 µM Ca2+: normalized current read 0.356.
ANO1 del476-501/F628A; whole-cell voltage clamp; 100 µM, concentration-response at -40 mV, added: 4 µM Ca2+ — normalized current: -0.0671.
TMEM16A (human) K603A/E623A; inside-out patch clamp; 10 µM, membrane voltage 40 mV — normalized current: 0.23.
For Anoctamin-1 (ANO1, Homo sapiens, UniProt Q5XXA6, del476-501/K430L); whole-cell voltage clamp; concentration not given: normalized current read 0.401.
For ANO1 del476-501/F628A; whole-cell voltage clamp; 30 µM, concentration-response at 40 mV, added: 4 µM Ca2+: normalized current read 0.19.
